Published values from different studies.
Numbered parts are unrelated; each lists some results of a single study. Several values in a cell are separate wells, animals, samples, runs or records.
Chain of UniProt Q99759 (whole entry, looked up): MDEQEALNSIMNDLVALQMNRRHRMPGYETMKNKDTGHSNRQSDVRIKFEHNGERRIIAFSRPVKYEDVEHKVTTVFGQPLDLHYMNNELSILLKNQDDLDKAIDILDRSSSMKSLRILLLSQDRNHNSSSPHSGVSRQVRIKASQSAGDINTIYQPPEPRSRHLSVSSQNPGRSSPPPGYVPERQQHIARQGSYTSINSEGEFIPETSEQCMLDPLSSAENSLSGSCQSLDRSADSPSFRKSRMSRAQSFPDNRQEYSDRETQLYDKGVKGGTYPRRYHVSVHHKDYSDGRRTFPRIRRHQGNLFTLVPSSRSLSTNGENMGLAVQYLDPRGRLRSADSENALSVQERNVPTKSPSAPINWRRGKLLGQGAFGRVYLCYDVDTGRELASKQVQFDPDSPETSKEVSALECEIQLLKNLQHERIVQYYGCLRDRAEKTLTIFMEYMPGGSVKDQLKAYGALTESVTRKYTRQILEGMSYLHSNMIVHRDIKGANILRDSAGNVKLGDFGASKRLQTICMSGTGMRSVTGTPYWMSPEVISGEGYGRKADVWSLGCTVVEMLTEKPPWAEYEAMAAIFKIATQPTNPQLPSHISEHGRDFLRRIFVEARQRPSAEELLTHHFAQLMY
Chain of UniProt O94804 (whole entry, looked up): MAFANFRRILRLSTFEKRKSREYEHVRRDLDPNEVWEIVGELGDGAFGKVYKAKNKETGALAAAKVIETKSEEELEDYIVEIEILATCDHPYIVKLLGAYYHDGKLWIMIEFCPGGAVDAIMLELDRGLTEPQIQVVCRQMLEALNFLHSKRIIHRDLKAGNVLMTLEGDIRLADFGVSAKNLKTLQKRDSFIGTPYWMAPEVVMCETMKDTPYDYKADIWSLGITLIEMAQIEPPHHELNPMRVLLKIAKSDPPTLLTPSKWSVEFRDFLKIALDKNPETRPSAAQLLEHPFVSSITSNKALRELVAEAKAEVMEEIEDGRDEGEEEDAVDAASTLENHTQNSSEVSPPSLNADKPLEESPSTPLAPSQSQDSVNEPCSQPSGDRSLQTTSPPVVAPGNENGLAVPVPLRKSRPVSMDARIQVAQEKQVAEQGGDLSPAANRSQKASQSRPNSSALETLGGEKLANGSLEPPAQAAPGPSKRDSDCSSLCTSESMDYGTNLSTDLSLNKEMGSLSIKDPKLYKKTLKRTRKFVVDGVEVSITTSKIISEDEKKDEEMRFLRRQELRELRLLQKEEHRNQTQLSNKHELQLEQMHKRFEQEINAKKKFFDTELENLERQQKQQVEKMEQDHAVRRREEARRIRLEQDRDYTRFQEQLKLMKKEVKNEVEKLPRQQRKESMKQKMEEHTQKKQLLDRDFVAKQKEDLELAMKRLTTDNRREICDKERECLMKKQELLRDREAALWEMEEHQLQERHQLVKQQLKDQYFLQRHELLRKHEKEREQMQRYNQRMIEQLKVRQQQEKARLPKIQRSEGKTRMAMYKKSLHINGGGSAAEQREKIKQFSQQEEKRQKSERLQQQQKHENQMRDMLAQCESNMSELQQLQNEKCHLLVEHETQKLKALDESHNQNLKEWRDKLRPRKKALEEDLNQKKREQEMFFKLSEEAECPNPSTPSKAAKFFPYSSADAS
Chain of UniProt O75676 (whole entry, looked up): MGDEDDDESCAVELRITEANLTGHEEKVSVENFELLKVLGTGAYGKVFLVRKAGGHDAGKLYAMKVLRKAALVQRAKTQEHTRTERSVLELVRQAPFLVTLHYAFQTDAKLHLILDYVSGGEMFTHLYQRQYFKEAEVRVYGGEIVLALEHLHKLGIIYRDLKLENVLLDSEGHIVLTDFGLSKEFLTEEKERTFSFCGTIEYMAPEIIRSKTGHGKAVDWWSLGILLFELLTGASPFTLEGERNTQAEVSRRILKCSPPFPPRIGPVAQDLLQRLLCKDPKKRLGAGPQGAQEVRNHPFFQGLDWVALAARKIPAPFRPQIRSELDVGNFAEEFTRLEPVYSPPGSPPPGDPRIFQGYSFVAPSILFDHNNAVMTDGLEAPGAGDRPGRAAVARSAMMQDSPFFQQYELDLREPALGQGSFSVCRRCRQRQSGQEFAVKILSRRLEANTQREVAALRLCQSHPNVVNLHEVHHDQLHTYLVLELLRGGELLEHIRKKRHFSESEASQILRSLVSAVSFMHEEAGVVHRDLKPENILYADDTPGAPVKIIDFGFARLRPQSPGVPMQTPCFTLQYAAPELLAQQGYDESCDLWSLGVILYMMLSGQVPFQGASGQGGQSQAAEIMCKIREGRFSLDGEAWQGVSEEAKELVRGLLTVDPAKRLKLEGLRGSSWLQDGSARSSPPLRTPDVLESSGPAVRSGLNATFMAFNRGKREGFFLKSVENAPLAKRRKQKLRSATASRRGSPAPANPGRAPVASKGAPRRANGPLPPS

Set 1
Target: DNA polymerase theta, ATPase domain (POLQ, Homo sapiens, UniProt O75417)
Chain of UniProt O75417 (whole entry, unmodified, looked up): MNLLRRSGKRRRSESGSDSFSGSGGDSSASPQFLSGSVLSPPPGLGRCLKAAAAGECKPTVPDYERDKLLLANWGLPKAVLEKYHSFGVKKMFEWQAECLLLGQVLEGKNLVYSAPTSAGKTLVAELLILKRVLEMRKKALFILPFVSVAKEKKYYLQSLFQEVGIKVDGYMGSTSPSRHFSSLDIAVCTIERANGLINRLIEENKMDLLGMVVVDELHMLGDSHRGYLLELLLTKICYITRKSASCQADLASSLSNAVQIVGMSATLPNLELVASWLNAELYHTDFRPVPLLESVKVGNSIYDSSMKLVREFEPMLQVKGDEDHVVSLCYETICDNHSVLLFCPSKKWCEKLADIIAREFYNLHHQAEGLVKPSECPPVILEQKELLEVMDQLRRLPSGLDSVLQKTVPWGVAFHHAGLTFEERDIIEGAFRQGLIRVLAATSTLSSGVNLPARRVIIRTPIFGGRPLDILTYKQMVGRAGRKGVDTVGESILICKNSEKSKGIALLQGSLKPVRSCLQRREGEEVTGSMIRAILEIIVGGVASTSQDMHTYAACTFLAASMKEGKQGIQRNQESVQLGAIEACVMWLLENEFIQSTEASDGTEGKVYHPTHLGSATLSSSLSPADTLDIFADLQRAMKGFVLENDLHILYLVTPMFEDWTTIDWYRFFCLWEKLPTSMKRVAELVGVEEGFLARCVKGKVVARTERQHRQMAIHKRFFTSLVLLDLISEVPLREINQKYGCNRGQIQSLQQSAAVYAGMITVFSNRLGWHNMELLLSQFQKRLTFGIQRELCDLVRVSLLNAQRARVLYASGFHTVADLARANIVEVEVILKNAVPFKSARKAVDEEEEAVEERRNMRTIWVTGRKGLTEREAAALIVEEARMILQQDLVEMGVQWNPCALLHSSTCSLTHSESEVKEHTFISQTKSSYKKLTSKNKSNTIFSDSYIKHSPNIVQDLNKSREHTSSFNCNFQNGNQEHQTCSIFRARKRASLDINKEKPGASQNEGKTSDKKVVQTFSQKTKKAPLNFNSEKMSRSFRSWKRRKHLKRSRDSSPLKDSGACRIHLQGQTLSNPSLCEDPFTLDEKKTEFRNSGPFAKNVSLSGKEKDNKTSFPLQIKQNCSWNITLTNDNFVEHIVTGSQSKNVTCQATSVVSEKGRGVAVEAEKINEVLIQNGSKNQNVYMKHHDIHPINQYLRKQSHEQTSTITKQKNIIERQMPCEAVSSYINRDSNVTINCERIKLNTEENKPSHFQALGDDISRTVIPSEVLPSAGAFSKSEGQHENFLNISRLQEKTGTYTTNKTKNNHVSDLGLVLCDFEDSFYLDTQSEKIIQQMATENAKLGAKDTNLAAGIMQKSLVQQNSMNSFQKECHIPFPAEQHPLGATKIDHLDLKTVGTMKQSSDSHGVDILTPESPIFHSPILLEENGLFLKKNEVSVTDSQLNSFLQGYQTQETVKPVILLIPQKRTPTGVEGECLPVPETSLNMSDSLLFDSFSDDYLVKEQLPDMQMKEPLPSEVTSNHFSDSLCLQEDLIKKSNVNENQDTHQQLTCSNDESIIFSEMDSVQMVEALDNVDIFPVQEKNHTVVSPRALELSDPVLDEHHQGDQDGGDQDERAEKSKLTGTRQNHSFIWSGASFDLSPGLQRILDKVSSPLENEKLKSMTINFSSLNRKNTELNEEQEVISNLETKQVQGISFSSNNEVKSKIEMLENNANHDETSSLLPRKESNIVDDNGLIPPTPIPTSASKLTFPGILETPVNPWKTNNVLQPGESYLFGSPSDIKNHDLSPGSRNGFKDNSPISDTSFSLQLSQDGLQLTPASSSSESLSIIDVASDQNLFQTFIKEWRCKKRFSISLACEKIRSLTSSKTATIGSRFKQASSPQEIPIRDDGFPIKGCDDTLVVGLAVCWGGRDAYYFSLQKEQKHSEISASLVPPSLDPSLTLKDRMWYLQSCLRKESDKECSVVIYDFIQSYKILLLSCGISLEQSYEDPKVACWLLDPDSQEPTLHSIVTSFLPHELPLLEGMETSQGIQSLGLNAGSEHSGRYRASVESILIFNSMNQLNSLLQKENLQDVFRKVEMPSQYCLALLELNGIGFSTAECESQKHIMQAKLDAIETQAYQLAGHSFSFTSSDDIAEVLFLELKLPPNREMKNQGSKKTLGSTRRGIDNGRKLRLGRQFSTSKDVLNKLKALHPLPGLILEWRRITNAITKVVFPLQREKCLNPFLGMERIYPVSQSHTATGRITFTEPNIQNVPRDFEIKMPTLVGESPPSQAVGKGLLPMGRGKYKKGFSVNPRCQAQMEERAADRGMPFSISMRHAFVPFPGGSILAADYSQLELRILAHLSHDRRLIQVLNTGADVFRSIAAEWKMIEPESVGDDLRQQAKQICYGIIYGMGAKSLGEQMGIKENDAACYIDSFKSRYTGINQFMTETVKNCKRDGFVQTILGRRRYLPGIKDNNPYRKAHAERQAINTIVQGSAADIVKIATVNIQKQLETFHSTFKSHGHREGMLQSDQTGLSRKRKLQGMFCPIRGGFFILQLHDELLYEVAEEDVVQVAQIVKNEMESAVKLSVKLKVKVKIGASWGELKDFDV
Observed: enzyme activity
Mode: inhibitor
Tested at: 77 µM
Baseline: untreated
SMILES	remaining activity
NCC(O)C1CCCCCCC1 (stereo not shown)	101%
CN(CCOc1ccc(NS(C)(=O)=O)cc1)CCc1ccc(NS(C)(=O)=O)cc1	77.7% and 99.6%
CCc1cccc2c3c([nH]c12)C(CC)(CC(=O)O)OCC3 (stereo not shown)	88.1% and 92.7%
CCCCCCCCCCCCCCCCCCOCC(COP(=O)([O-])OCC[N+](C)(C)C)OC (stereo not shown)	104%
COc1cnc(NS(=O)(=O)c2ccc(N)cc2)nc1	86.4% and 104%
COc1nc(N)nc2c1ncn2[C@@H]1O[C@H](CO)[C@@H](O)[C@@H]1O	92.5%
CN1C[C@@H]2c3ccccc3Oc3ccc(Cl)cc3[C@H]2C1 (racemic)	101%
CN1CCN(c2ccc(OC(F)(F)F)c(Nc3ncc4c(n3)-c3c(c(C(N)=O)nn3CCO)CC4)c2)CC1	102%
CCCOc1ccc(/C=C2/SC(=O)NC2=O)cc1	93.5%
CC[N+](CC)(CC(=O)Nc1c(C)cccc1C)Cc1ccccc1	75.3%

Set 2
Compound: COc1ccc(-c2cnc3c(-c4ccsc4)cnn3c2)cc1
Observed: enzyme activity
Mode: inhibitor
Tested at: 0.5 µM
Baseline: control
target	remaining activity
STK39 (Homo sapiens, UniProt Q9UEW8)	95.1%
DAPK2 (Homo sapiens, UniProt Q9UIK4)	87.4%
cGMP-dependent protein kinase 1, isoform beta (PRKG1, Homo sapiens, UniProt Q13976)	89.1%
MAPK9 (Homo sapiens, UniProt P45984)	104%
Cyclin-dependent kinase 5, with p25 (CDK5, Homo sapiens, UniProt Q00535)	73%
STK10 (Homo sapiens, UniProt O94804)	81.6%
CAMK2D (Homo sapiens, UniProt Q13557)	92%
CAMKK2 (Homo sapiens, UniProt Q96RR4)	72.9%
GRK3 (Homo sapiens, UniProt P35626)	97.8%
STK11 (Homo sapiens, UniProt Q15831)	95.9%
OXSR1 (Homo sapiens, UniProt O95747)	90.3%
NEK2 (Homo sapiens, UniProt P51955)	90.2%
Cyclin-dependent kinase 4, with cyclin D1 (CDK4, Homo sapiens, UniProt P11802)	69.8%
PRKCA (Homo sapiens, UniProt P17252)	101%
Protein kinase C beta type, isoform beta-I (PRKCB, Homo sapiens, UniProt P05771)	101%
PRKACA (Homo sapiens, UniProt P17612)	96.1%
MAP3K3 (Homo sapiens, UniProt Q99759)	99.4%
TGFBR1 (Homo sapiens, UniProt P36897)	98%
Tyrosine-protein kinase Lyn, isoform B (LYN, Homo sapiens, UniProt P07948)	92.7%
CHEK2 (Homo sapiens, UniProt O96017)	89.1%
TGFBR2 (Homo sapiens, UniProt P37173)	84.1%
IKBKE (Homo sapiens, UniProt Q14164)	85.5%
DAPK1 (Homo sapiens, UniProt P53355)	103%
IKBKB (Homo sapiens, UniProt O14920)	99.6%

Set 3
Compound: CC(=O)N1CCC(c2ccc(C(=O)NC3=NCCN3)cc2C(F)(F)F)CC1
Tested at: 1 µM
target	assay	remaining binding [%]
BMP2K (Homo sapiens, UniProt Q9NSY1)	cell-free assay, competition with immobilised ligand	100
CDK19 (Homo sapiens, UniProt Q9BWU1)	competition binding	100
GSK3B (Homo sapiens, UniProt P49841)	cell-free assay, competition with immobilised ligand	88
Ribosomal protein S6 kinase alpha-4, N-terminal kinase domain (RPS6KA4, Homo sapiens, UniProt O75676)	cell-free assay, competition with immobilised ligand	100
EGFR (Homo sapiens, UniProt P00533, del746-750)	cell-free assay, competition with immobilised ligand	100
EGFR (Homo sapiens, UniProt P00533, T790M)	cell-free assay, competition with immobilised ligand	100
SIK2 (Homo sapiens, UniProt Q9H0K1)	cell-free assay, competition with immobilised ligand	100
MYLK4 (Homo sapiens, UniProt Q86YV6)	cell-free assay, competition with immobilised ligand	100
Ribosomal protein S6 kinase alpha-6, C-terminal kinase domain (RPS6KA6, Homo sapiens, UniProt Q9UK32)	cell-free assay, competition with immobilised ligand	98
SBK1 (Homo sapiens, UniProt Q52WX2)	cell-free assay, competition with immobilised ligand	97
FLT3 (Homo sapiens, UniProt P36888, D835H)	cell-free assay, competition with immobilised ligand	93
BMPR1B (Homo sapiens, UniProt O00238)	cell-free assay, competition with immobilised ligand	89
CSNK1A1L (Homo sapiens, UniProt Q8N752)	cell-free assay, competition with immobilised ligand	100
MAP2K1 (Homo sapiens, UniProt Q02750)	cell-free assay, competition with immobilised ligand	100
SRC (Homo sapiens, UniProt P12931)	cell-free assay, competition with immobilised ligand	99
CSNK2A2 (Homo sapiens, UniProt P19784)	cell-free assay, competition with immobilised ligand	100
DMPK (Homo sapiens, UniProt Q09013)	cell-free assay, competition with immobilised ligand	100
MAP3K3 (Homo sapiens, UniProt Q99759)	cell-free assay, competition with immobilised ligand	100
HCK (Homo sapiens, UniProt P08631)	cell-free assay, competition with immobilised ligand	100
PIK3CA (Homo sapiens, UniProt P42336, Q546K)	cell-free assay, competition with immobilised ligand	100
WNK3 (Homo sapiens, UniProt Q9BYP7)	cell-free assay, competition with immobilised ligand	86
EPHA8 (Homo sapiens, UniProt P29322)	cell-free assay, competition with immobilised ligand	93
MAP4K2 (Homo sapiens, UniProt Q12851)	cell-free assay, competition with immobilised ligand	100
STK36 (Homo sapiens, UniProt Q9NRP7)	cell-free assay, competition with immobilised ligand	83
TXK (Homo sapiens, UniProt P42681)	binding, competition with immobilised ligand	82

Set 4
SMILES: CN(C(=O)c1ccn2ncc(-c3ccc(C(N)=O)cc3)c2c1)c1ccc(C#N)cn1
Target: Phosphatidylinositol 4-kinase (Cryptosporidium parvum, UniProt Q5CVD3)
Observed: enzyme activity
Mode: inhibitor
Technique: ADP-Glo
Target sequence (Q5CVD3 1-1114): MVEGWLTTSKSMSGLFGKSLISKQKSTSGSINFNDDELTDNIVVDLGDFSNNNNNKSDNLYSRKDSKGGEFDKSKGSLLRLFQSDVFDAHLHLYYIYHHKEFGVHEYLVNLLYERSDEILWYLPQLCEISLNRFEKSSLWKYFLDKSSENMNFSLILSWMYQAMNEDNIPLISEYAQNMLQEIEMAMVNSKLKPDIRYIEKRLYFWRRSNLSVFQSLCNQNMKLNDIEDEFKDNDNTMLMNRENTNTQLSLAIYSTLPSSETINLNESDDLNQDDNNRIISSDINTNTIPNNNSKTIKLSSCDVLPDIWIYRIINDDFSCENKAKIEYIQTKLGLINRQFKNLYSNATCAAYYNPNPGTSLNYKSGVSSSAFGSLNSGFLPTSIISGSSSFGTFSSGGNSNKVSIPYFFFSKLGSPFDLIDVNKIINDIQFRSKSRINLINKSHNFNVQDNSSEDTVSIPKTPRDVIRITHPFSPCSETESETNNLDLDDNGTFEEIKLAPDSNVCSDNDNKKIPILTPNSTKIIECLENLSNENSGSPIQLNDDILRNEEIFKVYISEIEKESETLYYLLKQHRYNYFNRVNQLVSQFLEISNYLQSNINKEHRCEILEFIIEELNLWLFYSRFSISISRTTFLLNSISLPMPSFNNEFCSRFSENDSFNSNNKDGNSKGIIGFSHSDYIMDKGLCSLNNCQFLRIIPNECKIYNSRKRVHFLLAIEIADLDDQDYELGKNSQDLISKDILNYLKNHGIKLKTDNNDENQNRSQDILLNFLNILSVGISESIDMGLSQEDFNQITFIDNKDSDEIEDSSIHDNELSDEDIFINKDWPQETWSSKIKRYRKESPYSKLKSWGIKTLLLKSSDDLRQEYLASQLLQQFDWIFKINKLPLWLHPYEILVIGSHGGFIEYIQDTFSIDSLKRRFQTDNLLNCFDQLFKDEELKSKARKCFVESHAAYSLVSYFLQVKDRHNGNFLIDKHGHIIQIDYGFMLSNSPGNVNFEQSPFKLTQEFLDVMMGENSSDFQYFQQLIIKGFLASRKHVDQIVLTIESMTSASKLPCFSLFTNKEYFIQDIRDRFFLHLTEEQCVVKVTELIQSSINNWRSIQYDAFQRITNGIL
setting	inhibition
3.05e-06 µM	17.3%
2.74e-05 µM	64.8%
9.15e-06 µM	39.9%
0.000741 µM	98.8%
0.002222 µM	99.4%

Repeated from above (set 3):
target	assay	remaining binding [%]
TXK (Homo sapiens, UniProt P42681)	binding, competition with immobilised ligand	82
EPHA8 (Homo sapiens, UniProt P29322)	cell-free assay, competition with immobilised ligand	93
CSNK2A2 (Homo sapiens, UniProt P19784)	cell-free assay, competition with immobilised ligand	100
EGFR (Homo sapiens, UniProt P00533, T790M)	cell-free assay, competition with immobilised ligand	100
MAP2K1 (Homo sapiens, UniProt Q02750)	cell-free assay, competition with immobilised ligand	100
MAP4K2 (Homo sapiens, UniProt Q12851)	cell-free assay, competition with immobilised ligand	100
CSNK1A1L (Homo sapiens, UniProt Q8N752)	cell-free assay, competition with immobilised ligand	100
